{"data": "Results gathered from unrelated publications", "note": "Parts stem from different laboratories: compare values within a part only. Changes are numbered by the printed parent chain.", "UniProt P16591, sequence (whole entry, looked up)": "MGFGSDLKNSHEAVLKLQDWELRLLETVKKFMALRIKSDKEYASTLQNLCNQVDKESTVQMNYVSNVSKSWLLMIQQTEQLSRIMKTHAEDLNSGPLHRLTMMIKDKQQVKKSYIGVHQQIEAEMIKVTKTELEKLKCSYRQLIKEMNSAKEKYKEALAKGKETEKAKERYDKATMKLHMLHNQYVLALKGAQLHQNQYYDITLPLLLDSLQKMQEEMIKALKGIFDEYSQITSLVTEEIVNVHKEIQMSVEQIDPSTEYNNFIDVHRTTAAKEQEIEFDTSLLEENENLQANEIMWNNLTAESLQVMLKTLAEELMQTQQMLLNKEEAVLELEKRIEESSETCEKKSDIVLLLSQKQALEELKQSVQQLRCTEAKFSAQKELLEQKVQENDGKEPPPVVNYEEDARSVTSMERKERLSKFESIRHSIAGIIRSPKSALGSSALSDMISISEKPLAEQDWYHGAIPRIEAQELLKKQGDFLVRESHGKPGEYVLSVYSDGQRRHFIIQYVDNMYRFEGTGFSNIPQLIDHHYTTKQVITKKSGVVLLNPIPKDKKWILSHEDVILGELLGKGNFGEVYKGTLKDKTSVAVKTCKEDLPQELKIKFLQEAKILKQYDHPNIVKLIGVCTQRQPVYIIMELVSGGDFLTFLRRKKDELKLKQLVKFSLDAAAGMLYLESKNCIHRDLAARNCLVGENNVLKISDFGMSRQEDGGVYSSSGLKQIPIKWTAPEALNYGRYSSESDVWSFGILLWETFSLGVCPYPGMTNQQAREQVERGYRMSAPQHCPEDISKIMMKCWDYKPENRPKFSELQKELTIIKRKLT", "UniProt P53667, sequence (whole entry, looked up)": "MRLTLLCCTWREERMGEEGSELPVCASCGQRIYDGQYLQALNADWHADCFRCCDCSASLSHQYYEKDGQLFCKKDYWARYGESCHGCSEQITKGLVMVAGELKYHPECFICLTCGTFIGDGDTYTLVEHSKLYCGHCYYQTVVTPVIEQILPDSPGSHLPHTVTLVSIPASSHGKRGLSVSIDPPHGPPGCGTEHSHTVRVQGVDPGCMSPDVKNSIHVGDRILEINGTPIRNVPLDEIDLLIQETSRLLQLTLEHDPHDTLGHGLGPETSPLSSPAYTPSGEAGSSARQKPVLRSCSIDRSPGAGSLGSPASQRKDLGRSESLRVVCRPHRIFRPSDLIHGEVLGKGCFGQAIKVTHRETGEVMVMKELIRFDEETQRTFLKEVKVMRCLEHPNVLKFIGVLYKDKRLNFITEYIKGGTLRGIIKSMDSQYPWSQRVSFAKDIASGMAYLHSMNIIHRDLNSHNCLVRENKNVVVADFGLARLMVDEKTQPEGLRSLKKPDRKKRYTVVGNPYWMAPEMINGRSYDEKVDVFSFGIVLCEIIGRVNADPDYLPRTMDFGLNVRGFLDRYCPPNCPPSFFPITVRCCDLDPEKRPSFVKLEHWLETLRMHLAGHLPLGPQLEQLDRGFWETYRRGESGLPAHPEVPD", "UniProt Q08881, sequence (whole entry, looked up)": "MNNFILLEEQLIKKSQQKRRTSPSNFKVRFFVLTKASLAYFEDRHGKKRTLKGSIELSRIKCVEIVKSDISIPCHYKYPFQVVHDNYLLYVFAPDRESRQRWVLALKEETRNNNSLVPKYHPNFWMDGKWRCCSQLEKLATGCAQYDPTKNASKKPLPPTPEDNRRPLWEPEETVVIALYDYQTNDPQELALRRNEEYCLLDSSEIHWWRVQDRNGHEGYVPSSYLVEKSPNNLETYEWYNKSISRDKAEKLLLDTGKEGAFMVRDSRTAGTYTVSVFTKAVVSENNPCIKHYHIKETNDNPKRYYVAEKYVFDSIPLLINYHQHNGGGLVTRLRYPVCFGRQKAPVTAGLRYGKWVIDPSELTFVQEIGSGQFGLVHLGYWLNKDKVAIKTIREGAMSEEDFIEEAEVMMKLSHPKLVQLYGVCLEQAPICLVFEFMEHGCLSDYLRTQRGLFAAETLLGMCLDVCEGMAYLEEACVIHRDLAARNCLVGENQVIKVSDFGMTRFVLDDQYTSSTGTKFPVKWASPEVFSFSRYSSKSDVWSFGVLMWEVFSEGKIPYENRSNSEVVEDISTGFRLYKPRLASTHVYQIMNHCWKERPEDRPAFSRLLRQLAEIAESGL", "UniProt Q92772, sequence (whole entry, looked up)": "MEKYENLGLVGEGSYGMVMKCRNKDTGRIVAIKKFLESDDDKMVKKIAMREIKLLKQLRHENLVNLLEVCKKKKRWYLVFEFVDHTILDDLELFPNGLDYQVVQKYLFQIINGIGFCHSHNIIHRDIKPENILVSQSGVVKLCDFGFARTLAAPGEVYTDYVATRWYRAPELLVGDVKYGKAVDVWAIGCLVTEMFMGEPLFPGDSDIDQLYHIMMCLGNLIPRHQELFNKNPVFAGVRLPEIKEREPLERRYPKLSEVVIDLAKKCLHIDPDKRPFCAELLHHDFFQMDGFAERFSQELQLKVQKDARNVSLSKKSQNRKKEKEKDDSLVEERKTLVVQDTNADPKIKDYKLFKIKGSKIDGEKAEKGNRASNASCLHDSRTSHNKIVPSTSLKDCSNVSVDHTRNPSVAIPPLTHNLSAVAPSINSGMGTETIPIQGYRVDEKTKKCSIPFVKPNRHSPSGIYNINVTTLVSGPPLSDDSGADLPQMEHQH", "UniProt Q00526, sequence (whole entry, looked up)": "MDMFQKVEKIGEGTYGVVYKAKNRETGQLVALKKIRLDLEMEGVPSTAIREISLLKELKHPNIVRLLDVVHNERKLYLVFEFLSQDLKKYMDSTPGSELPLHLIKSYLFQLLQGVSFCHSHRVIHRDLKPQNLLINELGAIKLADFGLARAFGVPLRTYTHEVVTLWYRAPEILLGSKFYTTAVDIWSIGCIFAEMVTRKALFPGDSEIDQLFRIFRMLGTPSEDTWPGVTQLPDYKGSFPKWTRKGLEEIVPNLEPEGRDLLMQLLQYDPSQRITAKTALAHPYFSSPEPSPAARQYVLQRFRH", "UniProt P51817, sequence (whole entry, looked up)": "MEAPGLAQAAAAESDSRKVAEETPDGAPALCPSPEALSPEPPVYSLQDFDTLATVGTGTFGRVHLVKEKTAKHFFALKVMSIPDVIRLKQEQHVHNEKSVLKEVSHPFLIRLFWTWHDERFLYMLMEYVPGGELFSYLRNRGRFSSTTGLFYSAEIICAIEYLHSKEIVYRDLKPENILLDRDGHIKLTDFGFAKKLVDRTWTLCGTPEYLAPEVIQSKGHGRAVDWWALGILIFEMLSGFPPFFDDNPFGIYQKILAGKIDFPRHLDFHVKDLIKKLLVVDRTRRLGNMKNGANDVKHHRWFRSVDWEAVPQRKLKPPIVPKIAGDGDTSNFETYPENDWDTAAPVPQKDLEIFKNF", "UniProt Q07912, sequence (whole entry, looked up)": "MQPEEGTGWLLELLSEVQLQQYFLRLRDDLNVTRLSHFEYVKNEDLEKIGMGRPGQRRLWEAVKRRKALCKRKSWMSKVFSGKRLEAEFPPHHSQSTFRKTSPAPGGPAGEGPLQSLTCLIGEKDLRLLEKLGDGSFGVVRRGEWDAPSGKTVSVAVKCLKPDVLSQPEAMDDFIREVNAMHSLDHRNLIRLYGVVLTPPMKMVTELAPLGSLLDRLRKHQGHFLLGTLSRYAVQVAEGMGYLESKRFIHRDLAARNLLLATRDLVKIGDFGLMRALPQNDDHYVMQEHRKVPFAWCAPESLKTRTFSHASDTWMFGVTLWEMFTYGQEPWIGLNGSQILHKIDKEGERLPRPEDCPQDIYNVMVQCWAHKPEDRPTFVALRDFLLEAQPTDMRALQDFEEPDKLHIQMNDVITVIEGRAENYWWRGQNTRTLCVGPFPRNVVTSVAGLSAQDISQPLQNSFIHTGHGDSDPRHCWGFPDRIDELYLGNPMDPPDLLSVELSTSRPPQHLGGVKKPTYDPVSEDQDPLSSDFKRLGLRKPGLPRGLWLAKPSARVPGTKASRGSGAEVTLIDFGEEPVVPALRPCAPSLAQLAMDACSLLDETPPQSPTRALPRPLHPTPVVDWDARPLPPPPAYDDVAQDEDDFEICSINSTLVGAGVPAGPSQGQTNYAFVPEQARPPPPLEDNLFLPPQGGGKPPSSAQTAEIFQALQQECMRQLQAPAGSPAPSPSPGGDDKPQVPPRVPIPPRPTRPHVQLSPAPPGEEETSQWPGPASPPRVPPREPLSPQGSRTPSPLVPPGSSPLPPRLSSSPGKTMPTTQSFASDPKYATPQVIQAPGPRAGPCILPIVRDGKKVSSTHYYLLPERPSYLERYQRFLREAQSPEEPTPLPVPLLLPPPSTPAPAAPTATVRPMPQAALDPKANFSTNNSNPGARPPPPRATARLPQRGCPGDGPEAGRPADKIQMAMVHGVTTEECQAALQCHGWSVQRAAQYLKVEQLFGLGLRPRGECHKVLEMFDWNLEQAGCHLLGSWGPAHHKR", "UniProt P42679, sequence (whole entry, looked up)": "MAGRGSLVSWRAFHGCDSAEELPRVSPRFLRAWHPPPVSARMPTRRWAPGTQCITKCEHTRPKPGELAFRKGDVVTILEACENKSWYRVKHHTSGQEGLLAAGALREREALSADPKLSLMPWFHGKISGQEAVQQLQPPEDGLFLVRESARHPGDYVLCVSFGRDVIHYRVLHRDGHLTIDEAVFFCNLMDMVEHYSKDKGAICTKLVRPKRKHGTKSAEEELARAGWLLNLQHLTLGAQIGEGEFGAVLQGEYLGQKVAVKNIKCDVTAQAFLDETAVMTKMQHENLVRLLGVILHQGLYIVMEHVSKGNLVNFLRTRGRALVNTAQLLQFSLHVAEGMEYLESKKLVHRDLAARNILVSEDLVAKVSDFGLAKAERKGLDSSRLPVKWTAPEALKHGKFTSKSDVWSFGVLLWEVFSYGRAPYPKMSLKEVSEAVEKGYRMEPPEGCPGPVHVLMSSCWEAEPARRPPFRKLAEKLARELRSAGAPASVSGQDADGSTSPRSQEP"}
{"data": "Block 1", "SMILES": "O=c1cc(N2CCOCC2)oc2c1ccc1ccccc12", "effect on": "enzyme activity", "action": "inhibitor", "tested at": "0.5 µM", "reference": "control"}
{"target": "Insulin receptor (INSR, Homo sapiens, UniProt P06213)", "remaining activity [%]": 92.3}
{"target": "FGR (Homo sapiens, UniProt P09769)", "remaining activity [%]": 94.6}
{"target": "FER (Homo sapiens, UniProt P16591)", "remaining activity [%]": 91.2}
{"target": "PKN1 (Homo sapiens, UniProt Q16512)", "remaining activity [%]": 106}
{"target": "ITK (Homo sapiens, UniProt Q08881)", "remaining activity [%]": 100}
{"target": "LIM domain kinase 1 (LIMK1, Homo sapiens, UniProt P53667)", "remaining activity [%]": 98}
{"target": "Cyclin-dependent kinase 3, with cyclin E (CDK3, Homo sapiens, UniProt Q00526)", "remaining activity [%]": 102}
{"target": "SRC (Homo sapiens, UniProt P12931)", "remaining activity [%]": 99.3}
{"target": "MARK3 (Homo sapiens, UniProt P27448)", "remaining activity [%]": 110}
{"target": "PRKX (Homo sapiens, UniProt P51817)", "remaining activity [%]": 96.6}
{"target": "HIPK1 (Homo sapiens, UniProt Q86Z02)", "remaining activity [%]": 102}
{"target": "MATK (Homo sapiens, UniProt P42679)", "remaining activity [%]": 90.7}
{"target": "NEK11 (Homo sapiens, UniProt Q8NG66)", "remaining activity [%]": 99.1}
{"target": "FLT4 (Homo sapiens, UniProt P35916)", "remaining activity [%]": 112}
{"target": "STK25 (Homo sapiens, UniProt O00506)", "remaining activity [%]": 94.8}
{"data": "Block 2", "target": "Sal-like protein 4, full length isoform B (SALL4, Homo sapiens, UniProt Q9UJQ4-2, residues 1-616)", "technique": "universal PBM", "molecule type": "double-stranded DNA, one strand shown", "sample": "in vitro", "tested at": "not given", "setting": "8-mer, flanks averaged, mean of replicates", "reading": "higher = stronger binding"}
{"Oligonucleotide": "GTAAGGAA", "E-score": 0.0596}
{"Oligonucleotide": "AGTGCGAA", "E-score": -0.181}
{"Oligonucleotide": "GGGCGAGA", "E-score": -0.245}
{"Oligonucleotide": "AATTTAAT", "E-score": 0.38}
{"Oligonucleotide": "AGACCTCC", "E-score": -0.237}
{"Oligonucleotide": "CCAATTCG", "E-score": -0.0228}
{"Oligonucleotide": "ACCGTTCG", "E-score": -0.0552}
{"Oligonucleotide": "GAATCGGA", "E-score": 0.0182}
{"data": "Block 3", "Structure (SMILES)": "CS(=O)(=O)c1cc(C2(NC(=O)c3cncc4c3cnn4-c3ccc(F)cc3)CC2)ccn1", "effect on": "cell-free assay", "technique": "competition with immobilised ligand", "tested at": "1 µM"}
{"target": "TNK2 (Homo sapiens, UniProt Q07912)", "remaining binding [%]": 100}
{"target": "EGFR (Homo sapiens, UniProt P00533, del746-750)", "remaining binding [%]": 100}
{"target": "PLK4 (Homo sapiens, UniProt O00444)", "remaining binding [%]": 85}
{"target": "Tyrosine-protein kinase ABL1, non-phosphorylated (ABL1, Homo sapiens, UniProt P00519, F317L)", "remaining binding [%]": 100}
{"target": "CDKL2 (Homo sapiens, UniProt Q92772)", "remaining binding [%]": 100}
{"data": "Block 4", "target": "CCND1, cyclin fold, Cln2 fusion (human)", "technique": "yeast growth competition, sequencing", "sample": "yeast", "setting": "weak parent motif", "reference": "not given", "reading": "higher = stronger binding", "parent": "RRM2 docking peptide (human); SKTARRIFQEPTE; partner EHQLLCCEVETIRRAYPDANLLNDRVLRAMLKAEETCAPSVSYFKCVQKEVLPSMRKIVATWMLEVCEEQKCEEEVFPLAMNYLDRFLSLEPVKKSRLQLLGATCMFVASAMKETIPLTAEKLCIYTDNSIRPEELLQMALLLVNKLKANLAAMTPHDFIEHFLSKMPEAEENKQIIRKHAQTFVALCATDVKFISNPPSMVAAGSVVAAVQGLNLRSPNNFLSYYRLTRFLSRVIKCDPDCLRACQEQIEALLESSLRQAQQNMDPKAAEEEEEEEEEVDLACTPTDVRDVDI"}
{"Change": "SKTARRIAQEPTE [F8A]", "normalised enrichment score": 0.442}
{"Change": "SKTARAIFQEPTE [R6A]", "normalised enrichment score": 0.911}
{"Change": "SKTARRIFQEPAE [T12A]", "normalised enrichment score": 0.449}
{"Change": "SKTARRIFAEPTE [Q9A]", "normalised enrichment score": 0.573}
{"Change": "SKTARRAFQEPTE [I7A]", "normalised enrichment score": 0.023}
{"Change": "SKTARRIFQAPTE [E10A]", "normalised enrichment score": 0.0388}
